# Measured values from different studies.
# By UniProt entry, the sequences of proteins in these tests, tags left out. Residues count along the entry.
# UniProt Q7T069, 1-388: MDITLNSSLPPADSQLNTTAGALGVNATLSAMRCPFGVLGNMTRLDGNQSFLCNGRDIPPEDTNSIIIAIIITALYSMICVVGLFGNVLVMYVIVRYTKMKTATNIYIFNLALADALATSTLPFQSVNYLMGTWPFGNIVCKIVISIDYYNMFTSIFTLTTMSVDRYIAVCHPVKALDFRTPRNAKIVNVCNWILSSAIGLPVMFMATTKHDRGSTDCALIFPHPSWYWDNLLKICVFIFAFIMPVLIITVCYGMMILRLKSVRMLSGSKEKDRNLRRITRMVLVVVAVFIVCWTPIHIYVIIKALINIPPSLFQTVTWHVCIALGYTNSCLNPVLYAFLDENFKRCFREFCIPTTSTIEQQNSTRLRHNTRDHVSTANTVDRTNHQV
# UniProt P33535, whole entry K303E: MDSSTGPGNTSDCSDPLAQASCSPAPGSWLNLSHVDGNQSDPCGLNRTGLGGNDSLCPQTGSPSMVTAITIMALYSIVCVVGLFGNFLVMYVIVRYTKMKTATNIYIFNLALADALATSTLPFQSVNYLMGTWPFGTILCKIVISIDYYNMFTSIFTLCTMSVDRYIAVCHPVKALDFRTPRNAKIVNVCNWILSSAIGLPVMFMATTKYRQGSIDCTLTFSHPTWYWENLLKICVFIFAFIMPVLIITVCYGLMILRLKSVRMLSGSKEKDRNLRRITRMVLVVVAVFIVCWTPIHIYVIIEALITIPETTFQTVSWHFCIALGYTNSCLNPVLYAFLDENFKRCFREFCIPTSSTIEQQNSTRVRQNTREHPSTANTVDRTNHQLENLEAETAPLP
# UniProt O25069, 1-549: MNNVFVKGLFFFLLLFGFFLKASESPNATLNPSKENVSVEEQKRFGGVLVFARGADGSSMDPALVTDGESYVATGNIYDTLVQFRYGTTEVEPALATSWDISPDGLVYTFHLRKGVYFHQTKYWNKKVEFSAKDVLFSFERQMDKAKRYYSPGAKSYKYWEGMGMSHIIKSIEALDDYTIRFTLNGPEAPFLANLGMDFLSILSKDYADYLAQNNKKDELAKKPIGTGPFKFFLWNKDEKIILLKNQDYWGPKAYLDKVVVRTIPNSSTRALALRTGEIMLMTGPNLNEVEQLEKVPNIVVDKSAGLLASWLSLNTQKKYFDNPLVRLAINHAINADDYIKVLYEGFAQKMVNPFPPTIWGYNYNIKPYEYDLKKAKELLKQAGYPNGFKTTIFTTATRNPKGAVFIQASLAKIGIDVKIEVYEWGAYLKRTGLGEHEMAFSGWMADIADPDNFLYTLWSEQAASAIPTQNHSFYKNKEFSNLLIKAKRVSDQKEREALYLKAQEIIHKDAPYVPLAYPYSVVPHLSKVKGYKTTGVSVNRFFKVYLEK
# UniProt P37571, 1-150 limits assumed: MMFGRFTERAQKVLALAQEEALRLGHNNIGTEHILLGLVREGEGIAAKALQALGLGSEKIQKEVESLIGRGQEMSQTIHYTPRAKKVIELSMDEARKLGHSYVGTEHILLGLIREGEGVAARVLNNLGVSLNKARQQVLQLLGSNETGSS
# UniProt P67660, whole entry E104A, looked up: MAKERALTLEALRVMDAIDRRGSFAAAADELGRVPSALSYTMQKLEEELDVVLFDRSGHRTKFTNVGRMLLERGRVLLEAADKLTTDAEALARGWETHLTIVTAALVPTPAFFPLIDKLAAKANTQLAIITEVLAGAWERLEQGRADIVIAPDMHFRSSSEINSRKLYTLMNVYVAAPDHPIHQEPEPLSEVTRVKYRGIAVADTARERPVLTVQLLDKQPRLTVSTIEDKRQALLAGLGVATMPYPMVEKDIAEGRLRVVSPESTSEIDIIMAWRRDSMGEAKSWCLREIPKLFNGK
# UniProt P48329, whole entry, looked up: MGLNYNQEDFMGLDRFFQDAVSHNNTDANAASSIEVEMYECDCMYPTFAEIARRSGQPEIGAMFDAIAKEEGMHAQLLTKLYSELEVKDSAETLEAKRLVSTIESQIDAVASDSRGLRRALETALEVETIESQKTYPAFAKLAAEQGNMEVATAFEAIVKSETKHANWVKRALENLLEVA
# UniProt Q8IEG9, whole entry, looked up: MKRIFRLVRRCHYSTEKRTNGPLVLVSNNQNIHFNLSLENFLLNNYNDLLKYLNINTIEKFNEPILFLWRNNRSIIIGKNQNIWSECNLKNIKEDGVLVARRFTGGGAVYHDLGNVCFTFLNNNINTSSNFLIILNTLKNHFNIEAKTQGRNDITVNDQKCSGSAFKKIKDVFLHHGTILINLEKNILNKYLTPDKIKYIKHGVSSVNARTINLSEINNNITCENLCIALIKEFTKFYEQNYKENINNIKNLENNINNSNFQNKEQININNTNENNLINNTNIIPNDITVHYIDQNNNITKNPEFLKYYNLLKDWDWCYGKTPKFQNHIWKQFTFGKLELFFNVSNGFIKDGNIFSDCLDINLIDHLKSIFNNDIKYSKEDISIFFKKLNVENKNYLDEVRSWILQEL
# UniProt P08908, whole entry: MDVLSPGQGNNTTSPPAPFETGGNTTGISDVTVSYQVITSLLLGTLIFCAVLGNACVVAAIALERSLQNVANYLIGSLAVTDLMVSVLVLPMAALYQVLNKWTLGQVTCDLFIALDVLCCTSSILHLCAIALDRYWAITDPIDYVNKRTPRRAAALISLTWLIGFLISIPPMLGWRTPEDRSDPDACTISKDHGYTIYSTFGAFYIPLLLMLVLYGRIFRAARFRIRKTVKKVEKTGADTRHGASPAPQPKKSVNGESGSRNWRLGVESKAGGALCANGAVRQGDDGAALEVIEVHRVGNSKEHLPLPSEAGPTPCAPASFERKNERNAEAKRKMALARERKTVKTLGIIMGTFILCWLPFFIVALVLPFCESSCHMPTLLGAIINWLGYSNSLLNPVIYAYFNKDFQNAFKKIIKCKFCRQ
# UniProt Q9KTW3, 1-489: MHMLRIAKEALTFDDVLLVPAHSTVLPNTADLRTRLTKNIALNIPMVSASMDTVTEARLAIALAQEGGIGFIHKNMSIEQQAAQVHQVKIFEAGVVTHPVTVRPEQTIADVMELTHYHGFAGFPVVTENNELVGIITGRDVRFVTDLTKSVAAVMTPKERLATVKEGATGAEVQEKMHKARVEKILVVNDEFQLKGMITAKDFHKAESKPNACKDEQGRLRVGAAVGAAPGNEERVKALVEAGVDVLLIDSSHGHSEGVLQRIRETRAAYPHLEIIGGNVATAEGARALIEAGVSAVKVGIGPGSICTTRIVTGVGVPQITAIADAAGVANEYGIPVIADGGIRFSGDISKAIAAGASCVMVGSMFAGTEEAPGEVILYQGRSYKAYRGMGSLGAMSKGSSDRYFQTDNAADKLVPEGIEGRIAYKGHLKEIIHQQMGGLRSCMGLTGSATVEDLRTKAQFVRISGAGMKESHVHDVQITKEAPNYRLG
# UniProt Q869C3, whole entry, looked up: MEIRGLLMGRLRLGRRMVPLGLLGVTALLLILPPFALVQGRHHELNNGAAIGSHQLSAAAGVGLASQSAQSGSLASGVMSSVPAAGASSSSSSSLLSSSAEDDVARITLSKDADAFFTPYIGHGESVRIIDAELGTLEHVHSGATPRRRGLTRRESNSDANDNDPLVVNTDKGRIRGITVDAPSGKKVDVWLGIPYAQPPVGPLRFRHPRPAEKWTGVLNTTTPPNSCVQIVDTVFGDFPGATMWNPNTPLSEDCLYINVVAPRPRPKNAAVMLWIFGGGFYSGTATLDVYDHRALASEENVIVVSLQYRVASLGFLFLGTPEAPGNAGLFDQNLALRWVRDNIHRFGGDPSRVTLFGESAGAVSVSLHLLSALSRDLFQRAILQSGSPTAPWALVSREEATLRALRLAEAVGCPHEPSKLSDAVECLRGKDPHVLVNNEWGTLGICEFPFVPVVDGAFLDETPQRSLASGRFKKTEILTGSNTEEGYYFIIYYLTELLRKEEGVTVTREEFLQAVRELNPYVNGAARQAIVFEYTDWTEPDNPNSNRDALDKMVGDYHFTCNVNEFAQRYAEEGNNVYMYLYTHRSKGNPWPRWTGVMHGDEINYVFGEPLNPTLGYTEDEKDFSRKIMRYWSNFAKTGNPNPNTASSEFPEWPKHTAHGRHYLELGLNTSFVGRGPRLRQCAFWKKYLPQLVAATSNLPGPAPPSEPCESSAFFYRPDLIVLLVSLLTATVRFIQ
# UniProt Q06187, whole entry: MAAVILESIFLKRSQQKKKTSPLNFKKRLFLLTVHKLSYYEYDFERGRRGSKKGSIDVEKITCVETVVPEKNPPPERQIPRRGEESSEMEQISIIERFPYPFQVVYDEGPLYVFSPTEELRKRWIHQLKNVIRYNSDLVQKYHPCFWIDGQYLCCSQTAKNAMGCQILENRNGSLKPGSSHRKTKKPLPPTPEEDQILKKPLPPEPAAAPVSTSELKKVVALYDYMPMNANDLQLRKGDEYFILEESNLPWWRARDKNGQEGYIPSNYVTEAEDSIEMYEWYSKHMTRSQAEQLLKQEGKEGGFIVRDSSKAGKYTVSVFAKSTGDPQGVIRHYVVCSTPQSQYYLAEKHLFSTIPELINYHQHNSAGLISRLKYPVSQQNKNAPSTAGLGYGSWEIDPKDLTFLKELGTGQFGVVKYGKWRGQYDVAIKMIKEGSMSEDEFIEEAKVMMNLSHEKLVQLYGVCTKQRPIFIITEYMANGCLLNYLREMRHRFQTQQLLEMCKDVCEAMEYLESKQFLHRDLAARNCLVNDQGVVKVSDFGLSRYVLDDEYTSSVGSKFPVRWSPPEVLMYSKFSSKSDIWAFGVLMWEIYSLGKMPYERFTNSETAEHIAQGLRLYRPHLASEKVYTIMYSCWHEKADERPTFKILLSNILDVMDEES
# UniProt P42866, whole entry: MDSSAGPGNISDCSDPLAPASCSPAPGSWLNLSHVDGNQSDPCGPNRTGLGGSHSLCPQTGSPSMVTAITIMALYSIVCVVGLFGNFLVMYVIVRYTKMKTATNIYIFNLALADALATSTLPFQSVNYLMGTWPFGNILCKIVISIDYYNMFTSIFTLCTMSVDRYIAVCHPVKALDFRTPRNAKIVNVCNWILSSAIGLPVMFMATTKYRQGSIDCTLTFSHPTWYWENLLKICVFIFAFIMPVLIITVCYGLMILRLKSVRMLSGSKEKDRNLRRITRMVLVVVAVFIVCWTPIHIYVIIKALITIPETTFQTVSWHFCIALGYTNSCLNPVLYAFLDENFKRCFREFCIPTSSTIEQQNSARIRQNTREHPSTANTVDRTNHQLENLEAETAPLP
# UniProt A0A1D2IX29, 1-331: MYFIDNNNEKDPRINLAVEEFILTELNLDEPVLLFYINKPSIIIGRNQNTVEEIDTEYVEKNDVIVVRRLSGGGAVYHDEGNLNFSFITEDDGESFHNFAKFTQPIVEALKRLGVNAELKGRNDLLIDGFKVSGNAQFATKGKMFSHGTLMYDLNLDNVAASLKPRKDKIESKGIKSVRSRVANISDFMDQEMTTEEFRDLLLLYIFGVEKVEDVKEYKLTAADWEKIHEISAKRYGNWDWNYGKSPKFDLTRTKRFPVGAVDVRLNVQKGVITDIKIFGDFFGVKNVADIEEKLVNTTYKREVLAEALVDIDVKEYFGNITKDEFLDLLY
# ± marks the error that the study gave.
Molecule,tested on,test,system,setting,scale,measurement,result
CO[C@]12CC[C@@]3(C[C@@H]1C(C)(C)O)[C@H]1Cc4ccc(O)c5c4[C@@]3(CCN1CC1CC1)[C@H]2O5,"Mu-type opioid receptor (Lithobates pipiens, UniProt Q7T069)",radioligand saturation binding,HEK-293T transfected,frog mu opioid receptor,,Kd,0.0022 ± 0.0009 µM
neutrophil inhibitory factor,"Integrin beta-2 (Homo sapiens, UniProt P05107)","binding, solid-phase binding",,,,Kd,> 100 µM
[3H]diprenorphine,"Mu-type opioid receptor (Oprm1, Rattus norvegicus, UniProt P33535, K303E)","radioligand, saturation binding",N2a cell membranes,"1 h, pH 7.4, room temperature, added: [3H]diprenorphine",,Kd,0.00042 ± 0.00011 µM
O=c1ccc2[n+]([O-])c3ccc(O)cc3oc-2c1,Mycobacterium tuberculosis,,mc2 6206 PA-824-resistant ddn mutant,7 days,,MIC90,46 µM
C[C@H](NC(=O)[C@H](CO)NC(=O)[C@@H](NC(=O)[C@@H](N)CO)[C@@H](C)O)C(=O)O,"Dipeptide-binding protein DppA (Helicobacter pylori, UniProt O25069)",thermal shift,,"at To, unfolding equilibrium model",,Kd,29 ± 2 µM
[N-]=[N+]=[N-],"Azurin, iron(II)-substituted (azu, Pseudomonas aeruginosa, UniProt P00282, M141A)",1H NMR titration,,"pH 7, Fe(II)-substituted protein",,Kd,~20000 µM
CCN1CCN(Cc2ccc(NC(=O)c3ccc(C)c(/C=C/c4cnc5[nH]ccc5c4OC)c3)cc2C(F)(F)F)CC1,ETV6-NTRK3 fusion,"kinase-CDC37 interaction, inhibitor",human cells,5 µM,reference: vehicle,log2 fold change,-1.12
N=C(NCCC[C@H](N)C(=O)O)NP(=O)(O)O,"Negative regulator of genetic competence ClpC/MecB (clpC, Bacillus subtilis, UniProt P37571)",isothermal titration calorimetry,,,,Kd,13 µM
Cc1cc(O)ccc1O,"Probable HTH-type transcriptional regulator YhaJ, effector-binding domain (yhaJ, Escherichia coli, UniProt P67660, E104A)",microscale thermophoresis,,pH 7.5,,Kd,18900 ± 5300 µM
[N-]=[N+]=[N-],"Symerythrin (Cyanophora paradoxa, UniProt P48329)",UV-visible titration,,azide binding,,Kd,~60000 µM
O=C(O)CCCC[C@@H]1CCSS1,"Lipoate--protein ligase 1 (LipL1, Plasmodium falciparum, UniProt Q8IEG9)",isothermal titration calorimetry,,,,Kd,2.6 µM
CCCN1CCN(c2ccc3c(c2)C2CC3CCN2C(=O)OCc2ccccc2)CC1 (stereo not shown),"5-hydroxytryptamine receptor 1A (HTR1A, Homo sapiens, UniProt P08908)","binding, radioligand binding",,,,Ki,1.19 µM
O=P(O)(O)O[C@H]1[C@H](OP(=O)(O)O)[C@@H](OP(=O)(O)O)[C@H](OP(=O)(O)O)[C@@H](OP(=O)(O)O)[C@H]1OP(=O)(O)O,"Toxin A (tcdA, Clostridioides difficile, UniProt P16154)","binding, radioligand binding",cysteine protease domain allosteric site,added: tritiated compound,,Kd,0.0626 ± 0.007 µM
O=C(Cn1c(-c2ccccn2)nc2ccccc21)Nc1ccc2ccccc2c1,"guaB (Vibrio cholerae, UniProt Q9KTW3)","binding, biolayer interferometry",,"25 °C, added: IMP 1 mM, NAD+",,Kd,> 5 µM
CNC(=O)Oc1ccc2c(c1)[C@]1(C)CCN(C)[C@@H]1N2C,"Acetylcholinesterase (Ace, Anopheles gambiae, UniProt Q869C3)","enzyme inhibition, inhibitor",,added: acetylthiocholine 600 µM,,Kd,0.26 ± 0.02 µM
CC#C/C(=N\OC[C@H]1COCCN1)c1ccc2ncnc(Nc3ccc(OCc4cccc(F)c4)c(Cl)c3)c2c1,"Tyrosine-protein kinase BTK (BTK, Homo sapiens, UniProt Q06187)",kinase activity,,10 µM,,inhibition,45.1%
[3H]diprenorphine,"Mu-type opioid receptor (Oprm1, Mus musculus, UniProt P42866)","radioligand, radioligand saturation binding","wild type mice, locus coeruleus homogenate",pH 7.4,,Kd,0.00046 ± 8e-05 µM
CSCOc1ccc2nc3ccc(=O)cc-3oc2c1,Mycobacterium tuberculosis,,mc2 6206 PA-824-resistant ddn mutant,7 days,,MIC90,42 µM
CNC(=O)CCCCC1CCSS1 (stereo not shown),"Lipoate-protein ligase A1 (Listeria monocytogenes, UniProt A0A1D2IX29)",isothermal titration calorimetry,,,,Kd,15 µM

# Repeated from above:
Molecule,tested on,test,system,setting,scale,measurement,result
O=C(O)CCCC[C@@H]1CCSS1,"Lipoate--protein ligase 1 (LipL1, Plasmodium falciparum, UniProt Q8IEG9)",isothermal titration calorimetry,,,,Kd,2.6 µM
CC#C/C(=N\OC[C@H]1COCCN1)c1ccc2ncnc(Nc3ccc(OCc4cccc(F)c4)c(Cl)c3)c2c1,"Tyrosine-protein kinase BTK (BTK, Homo sapiens, UniProt Q06187)",kinase activity,,10 µM,,inhibition,45.1%
[3H]diprenorphine,"Mu-type opioid receptor (Oprm1, Rattus norvegicus, UniProt P33535, K303E)","radioligand, saturation binding",N2a cell membranes,"1 h, pH 7.4, room temperature, added: [3H]diprenorphine",,Kd,0.00042 ± 0.00011 µM
